Published values gathered from unrelated publications.
Compare with care: the assays were run in different laboratories. Several values in a cell are separate wells, animals, samples, runs or records. ± gives the spread as reported.

| SMILES | system | setting | scale | tissue uptake |
| --- | --- | --- | --- | --- |
| CCN(CC)c1ccc2c(-c3ccccc3C(=O)OCCOCC[18F])c3ccc(=[N+](CC)CC)cc-3oc2c1 | rat, lung | 60 min | – | 2.06 ± 0.16 %ID/g |
| CCNc1cc2[o+]c3cc(NCC)c(C)cc3c(-c3ccccc3C(=O)OCCOCC[18F])c2cc1C | rat, liver | 30 min | – | 0.15 %ID/g and 0.14 %ID/g |
| CN(C)c1ccc(C(=O)NCCCCN2CCN(c3ccccc3O[11CH3])CC2)cc1 | male Sprague Dawley rat, muscle | iv, 30 min | relative to: untreated | 0.071 %ID/g |
| COc1cc2ccnc(Cc3ccc(O[11CH3])c(OC)c3)c2cc1OC | Sprague-Dawley rats, testes | intravenous, 0.5 h | – | 0.094 ± 0.017 %ID/g |
| COc1ccc(NC(=O)Cn2c(=O)c3ccccc3n(CC(=O)Nc3cc([125I])c(OC)cc3OC)c2=O)cc1 | Wistar rat (normal), thyroid | intravenous, 0.08333 h | – | 0.32 ± 0.11 %ID/g |
| O=C(O)CCCN1CCN2CCN(CC1)CC(=O)[O][Al]([18F])[O]C(=O)C2 | Sprague-Dawley rat renal pedicle ligation, bowel, intestines and stomach | dose not given, 60 min | – | 3.2 ± 0.6 % injected dose |
| CCN(CC)c1ccc2c(-c3ccccc3C(=O)OCCC[18F])c3ccc(=[N+](CC)CC)cc-3oc2c1 | rat, blood | 60 min | – | 0.05 ± 0.01 %ID/g |
| O=C(c1ccc(F)cc1)C1CCN(C2Cc3c(cccc3OCC[18F])CC2O)CC1 (single isomer, unassigned; (-)) | Sprague-Dawley rat, male, lung | intravenous, dose not given, 30 min | – | 0.973 ± 0.107 %ID/g |
